Published values collected from several papers.
Numbered parts are unrelated; each lists some results of a single study. Positions count from the first letter of the parent shown.

Block 1
Target: RNA binding protein fox-1 homolog 2, RRM domain, GST-SBP tag (RBFOX2, Homo sapiens, UniProt O43251-10, residues 100-194)
Technique: RNA Bind-n-Seq
Molecule type: RNA
Medium: in vitro
Concentration: 365 nM
Setting: natural RNA segment, single round, ends assumed
Baseline: no-protein control
Reading: higher = stronger binding
Endpoint: RBNS enrichment (R)
Construct (chain): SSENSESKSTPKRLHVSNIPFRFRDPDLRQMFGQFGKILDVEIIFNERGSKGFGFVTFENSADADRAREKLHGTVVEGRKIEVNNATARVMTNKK
Sequence = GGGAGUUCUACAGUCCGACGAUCCUCUCUGUUCUUGUUAUCUUAGCCAACUAUACUGAUACCUACAGCUACAGAAAGCAGGACUAGGAACUGGAAAUAACUUUGGGUCCUGCCUUCAUUAGGACGUUCUUUUUUGGAAUUCUCGGGUGCCAA; result = 0.401
Sequence = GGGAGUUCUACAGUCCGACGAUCGUCUCUCUCCCUGUCAUCAAUCAGGGUAGUAACUUGACUUAAGAAUACCACUUUUUAGAAAAAUUACGAUAGAGAUGGGAUCUCACUAGGUUGCCCAGGCUGGUGUCGAAUGGAAUUCUCGGGUGCCAA; result = 0.374
Sequence = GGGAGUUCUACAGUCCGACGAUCGGGCAUUGUCUUCCUUGUAUAUGUUUGUCAUAUUUCAUUUCACCAAAUAAACACAUACUCAUUGUGAACUCUCUGUUGUUGUCCAUUUCAAAUCUGGAUUGUUCUGUGAAUGGAAUUCUCGGGUGCCAA; result = 1.16
Sequence = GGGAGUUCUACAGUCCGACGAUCAAACCAAAGACACCAAAUCUAGGUGAUCACUGAAGCAACGCAACCGCUUCCACCACCAUGGUGUUUGUUUCUAGAACUUUUGCCAGUCCUUGAAGAAUGGGUUCUGUGUCUGGAAUUCUCGGGUGCCAA; result = 0.347
Sequence = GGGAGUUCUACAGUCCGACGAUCUUCAUACACAUGCAAUCAUACAUGCACACUGACUCUGAACUGGGUGAACUCUGUGGAGGGAGGCCCAGAAUGGGUGCUUUCACCAAGAAUUUGUCUGUGUACAACUCUAGUGGAAUUCUCGGGUGCCAA; result = 0.454
Sequence = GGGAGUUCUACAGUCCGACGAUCAGCGGCCACCAACUGACCUGGGGCGCUGCUCCCCACAGUCCAAAUAAGCUGAAAGUGCAGCUCGCUGCAGGCCCCAGAGCGAGCUUCCCCUCCUCCCUGCUCUCCCAGGCUGGAAUUCUCGGGUGCCAA; result = 0.478
Sequence = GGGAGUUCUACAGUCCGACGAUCUCUCAGGCCUCGGAAGGAAGAUCGGUGGCUGCGAGCUGAACUAAGGAGUAGGGCCUGUGGCUCAGCGCUAGGCCACGCACGCAGCAUCCCAGGCAUGUGGUGAGAAACUGUGGAAUUCUCGGGUGCCAA; result = 1.28
Sequence = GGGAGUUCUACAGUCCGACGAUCAGACAAUCUCAGCUUUUCUUAGACAAUCUUCUAUCUCAAACUUCAGACAUUCCAGAAUUGUCAUGAUGUUUACACUGUCUGAGUUAAAAAUCCUGUUCAAGAAAAAAAAAUGGAAUUCUCGGGUGCCAA; result = 0.419

Block 2
Target: Histone acetyltransferase KAT6A, winged helix 1, GST fusion (KAT6A, Homo sapiens, UniProt Q92794, residues 1-85)
Technique: protein binding microarray
Molecule type: double-stranded DNA, one strand shown
Medium: in vitro
Concentration: not given
Setting: 8-mer, flanks averaged, mean of 2 arrays, mostly near background
Baseline: not given
Reading: higher = stronger binding
Endpoint: E-score
Target sequence (chain): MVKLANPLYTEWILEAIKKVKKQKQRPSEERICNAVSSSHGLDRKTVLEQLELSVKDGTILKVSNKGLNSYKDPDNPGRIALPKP
Sequence = GTGGGTCA; result = -0.0733
Sequence = CCACAGGA; result = -0.205
Sequence = AACTAGCC; result = -0.0933
Sequence = CTCGTTTA; result = -0.101
Sequence = CCTCGCGA; result = 0.218
Sequence = TAATTAGA; result = -0.0922
Sequence = AAGGTGAG; result = -0.0241
Sequence = AGGATTAA; result = 0.00411

Mixed results
P1: PafA, mature enzyme, eGFP fusion (Elizabethkingia meningoseptica, UniProt Q9KJX5); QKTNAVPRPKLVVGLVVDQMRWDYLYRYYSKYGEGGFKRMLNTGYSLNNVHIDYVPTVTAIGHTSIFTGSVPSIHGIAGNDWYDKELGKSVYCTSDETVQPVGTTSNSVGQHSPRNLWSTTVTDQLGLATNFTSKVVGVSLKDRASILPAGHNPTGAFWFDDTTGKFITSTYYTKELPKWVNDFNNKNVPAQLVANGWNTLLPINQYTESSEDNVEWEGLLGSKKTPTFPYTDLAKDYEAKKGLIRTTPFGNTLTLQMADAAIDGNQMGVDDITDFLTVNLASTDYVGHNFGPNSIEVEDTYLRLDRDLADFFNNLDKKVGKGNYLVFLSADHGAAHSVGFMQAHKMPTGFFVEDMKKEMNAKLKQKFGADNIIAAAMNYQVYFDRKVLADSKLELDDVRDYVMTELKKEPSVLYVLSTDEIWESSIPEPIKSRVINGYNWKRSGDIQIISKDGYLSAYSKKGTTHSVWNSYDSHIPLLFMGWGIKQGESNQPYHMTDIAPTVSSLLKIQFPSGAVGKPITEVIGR
Substance = WNT10B (Homo sapiens, UniProt O00744); target or system = TAF1A (Homo sapiens, UniProt Q15573); test = cross-linking MS; system = cell fractions; conditions = with: DMTMM; endpoint = cross-linked residues; result = E312 to K322
Substance = P1 A262G; target or system = inorganic phosphate, free oxyanion; test = microfluidic competitive inhibition; system = in vitro, cell-free expressed; conditions = not given, derived from inhibition constants, unchanged parent 615000 nM; how to read = lower = stronger binding; endpoint = phosphate dissociation constant; result = 543 µM
Substance = SRSF2 (Homo sapiens, UniProt Q01130); target or system = SRSF7 (Homo sapiens, UniProt Q16629); test = cross-linking MS; conditions = hits only; endpoint = interaction screen; result = cross-linked

A few entries again (block 2):
Sequence = CCACAGGA; result = -0.205
Sequence = AACTAGCC; result = -0.0933
